# Results of several laboratories.
# “And” joins repeats or separate records; there may be more than shown. ± marks the error that the study gave.
Compound,test,system,setting,scale,measurement,result
CCCc1ccc(-c2ccc(-c3cc(F)c(F)c(F)c3)c(F)c2)cc1,,"rat, placenta","5000 ng/mL in perfusate, high dose, mixture of 21 LCMs",,placental accumulation,338 ± 470 ng/g
CNC(=O)c1ccc(-c2cnc3ncc(Cc4ccc5ncccc5c4)n3n2)cc1F,"item: Asthenia, all grades",gastric cancer patients,"oral, 600 mg twice daily, expansion cohort, any causality",,patients with adverse event,0%
C[C@@H](c1ncncc1F)[C@](O)(Cn1cncn1)c1ccc(F)cc1F,,human,"oral, 200 mg, drug interaction trial",,any TEAE,9.1%
C[C@@H](N)c1cc(Cl)ccc1Cn1c(=S)[nH]c(=O)c2[nH]ccc21,,human matched controls,"oral, 2.5 mg single dose",,subjects with headache,10%
C[C@H]1CN(C(=O)CC#N)[C@]12CCN(c1ncnc3[nH]ccc13)C2,,"healthy adults, plasma","oral, 6 mg single dose",,"Tmax, median or range",0.8 h
Cl.[2H]C([2H])([2H])CC(=O)c1cnc(NC(=O)C2CC2)cc1Nc1cccc(-c2ncn(C([2H])([2H])[2H])n2)c1OC,geometric mean,human,"oral, 20 mg twice daily, day 1, fed, liquid, multiple dose",,AUC(0-tau),911 ng·h/mL
Cn1ncnc1[C@H]1c2n[nH]c(=O)c3cc(F)cc(c23)N[C@@H]1c1ccc(F)cc1,,"human patients, plasma","oral, 400 µg/m2 twice daily day 1, day 5, dose level DL2, median, added: temozolomide 20 mg/m2 daily days 2-6",,AUCτ,129 ng·h/mL
C[C@H](CCC(=O)NCC(=O)O)[C@H]1CC[C@H]2[C@@H]3[C@H](O)C[C@@H]4C[C@H](O[C@@H]5O[C@H](C(=O)O)[C@@H](O)[C@H](O)[C@H]5O)CC[C@]4(C)[C@H]3CC[C@]12C,,"human, plasma",control,,Cmin,15.6 ± 4 nM
Clc1cc(Cl)cc([C@@H]2COC[C@]3(CC[C@H](c4ccccc4)CC3)N2)c1,"shake-flask, LC-HRMS",aqueous buffer,"16 h, pH 6.8",,solubility,< 4 µM
Cn1cc(Nc2nc(N)nc(-c3cccc(-n4ccc5cc(C6CC6)cc(F)c5c4=O)c3CO)n2)cn1,,"healthy humans, fed","oral tablet, 50 mg twice daily (multiple dose), 14 (unit not given)",baseline: subjects,vomiting incidence,0%
O=C(COc1ccc(Cl)cc1)NC12CC(c3nnc([C@H]4C[C@@H](OC(F)(F)F)C4)o3)(C1)C2,,human both sexes,"oral, 45 mg once daily, 14 days",,participants with procedural pain,66.7%
O=C(O)CCC(=O)O.[2H]C([2H])([2H])Oc1cc(C)c2[nH]ccc2c1CN1CC[C@@H](C2CC2)C[C@H]1c1ccc(C(=O)O)cc1,,healthy Chinese subjects,"50 mg, single ascending dose",,TEAE hyponatremia,0%
Cc1c(-c2ccc(N3CCc4cccc(C(=O)Nc5nc6ccccc6s5)c4C3)nc2C(=O)O)cnn1CC12CC3(C)CC(C)(C1)CC(OCCNCC[C@H](O)CO)(C3)C2,,"beagle dog, male, anaesthetised","intravenous infusion, 0.3 mg/kg/min, 30 min",baseline: vehicle,QRS duration change,1 ms
COc1cc2nccc(Oc3ccc(NC(=O)c4cc5c(n(-c6ccccc6)c4=O)CCCC5=O)nc3)c2cc1OC,,relapsed or refractory AML,"oral, all dose levels",,grade ≥3 Sepsis patients,20%
[18F]c1ccc(-c2ccc3c(c2)[nH]c2ccncc23)cn1,ex vivo biodistribution,"B6SJL mouse, normal, cerebellum","intravenous, 30 min",,SUV,0.367 ± 0.117
CCn1ncc2c1-c1cnc(N)c(c1)O[C@H](C)c1cc(F)ccc1-c1nn(C)nc1C2,,"female BALB/c nude mice, PDX","oral, 0.04 mg/kg once daily for 1 days, 1 h",,unbound plasma concentration,4.7 ± 0.3 nM
COc1ccc2c(c1)CN(C(=O)CCN1CCC(Cc3ccccc3)CC1)CC[S@@+]2[O-],,dog plasma,10000 ng/mL,,fu,0.514
O=C1NCCc2nc(OCc3cccc(F)c3)ccc21,item: Lacrimation,"Sprague-Dawley rat, male","oral, 100 mg/kg, 1 h, score 0 none to 2 full",direction not given,Irwin test score,0
CCO[C@H]1CCN(Cc2c(OC)cc(C)c3[nH]ccc23)[C@H](c2ccc(C(=O)O)cc2)C1,,"healthy volunteers, plasma","oral, 200 mg single dose, mean",,total half-life,20.6 h
Cc1nc(-c2ccc(OCC(C)C)c(C#N)c2)sc1C(=O)O,,"KM mouse, chronic hyperuricaemia model","dose not given, day 7",,body weight,28 g and 29.7 g and 31.8 g and 33.3 g and 29 g and 31.4 g
Cn1cc(Nc2nccc(-c3ccc4c(c3)CN(C3COC3)CC[C@H]4NC(=O)c3cn(C(C)(C)C)nn3)n2)cn1,,"human, whole blood","300 mg twice daily, day 14",baseline: pre-dose baseline,monocyte count change,-0.84%
O=C(Nc1cnccc1Cl)N1CCN(Cc2ccc3c(c2)OC(F)(F)O3)CC1,item: Dizziness,human healthy young women,"100 mg, multiple dose",,adverse event incidence,83.3%
N#Cc1ccc2c(c1)[C@H]1CCCN(C(=O)c3ccc4[nH]cnc4c3)[C@H]1C2,,human males,"240 mg, day 7",,SHBG level,22.7 nmol/L
CCN1CCN(Cc2ccc(NC(=O)c3ccc(C)c(NC(=O)c4cncc(-c5cccs5)c4)c3)cc2C(F)(F)F)CC1,LC-MS/MS,"C57BL/6 mouse, plasma","intraperitoneal, 10 mg/kg single dose, 8 h",,mean plasma concentration,30 ng/mL
CCOC(=O)N1C[C@@H](c2ccc(Cl)cc2)N[C@@H](c2ccc(-c3ccccc3)cc2)C1,"shake-flask, LC-HRMS",aqueous buffer,"16 h, pH 6.8",,solubility,< 4 µM
Cc1ccc([C@@H]2O[C@H](CO)[C@@H](O)[C@H](O)[C@H]2O)cc1Cc1ccc(-c2ccc(F)cc2)s1,,Japanese type 2 diabetes patients,"400 mg, day 17, 24 h urine collection",baseline: baseline,urinary calcium excretion change,2.85 mg
O=C(Nc1nc2cccc(-c3ccc(CN4CCS(=O)(=O)CC4)cc3)n2n1)C1CC1,item: blood triglycerides increased,rheumatoid arthritis patients,"oral, 150 mg once daily, 4 weeks, any relatedness",,treatment-emergent adverse events,0%
C[C@@H](Oc1ccc(S(C)(=O)=O)cc1C(=O)N1C[C@@H]2C[C@]2(c2cc(C(F)(F)F)on2)C1)C(F)(F)F,,"elderly humans, plasma","oral, 50 mg once daily, geometric mean","baseline: AUCtau,ss over AUC(0-inf)",linearity index,0.865
Cn1cc([C@H]2C[C@H]3CSC(N)=N[C@@]3(c3ccc(F)cc3F)CO2)cn1,,mouse,"subcutaneous, 3 mg/kg, 9 h",,CSF concentration,not detected
Cc1c(C(=O)O)ccc2c3n(nc12)[C@@H]1[C@H](C3)N(CC2CC2)[C@@]2(C(=O)Nc3cc(Cl)ccc32)[C@H]1c1cccc(Cl)c1F,,human patients phase Ia,"oral, dose not given, grade ≥3, all patients",,decreased appetite incidence,0%
O=c1[nH]c(=O)n([C@H]2C[C@H](O)[C@@H](CO)O2)cc1CCC[18F],,"male CD-1 nu/nu mice, RG2 tumour, skin","intravenous, dose not given, 2 h",,biodistribution,0.33 ± 0.13 %ID/g
CCc1c(-c2ccccc2)c(-c2ccccc2)nn1-c1ccccc1-c1cccc(OCC(=O)O)c1,,Sprague-Dawley rat,intravenous,,MRT(0-inf) observed,0.752 h and 1.04 h and 0.717 h
CCOc1c([C@H](C)n2nc(C)c3c(N)ncnc32)cc(Cl)c(F)c1[C@@H]1CNC(=O)C1,,"human patients, plasma","oral, 15 mg once daily, cycle 1 day 15, monotherapy",,Cmin,156 ± 99.8 nM
CC(C)=CCC/C(C)=C/C(=O)O.Cc1cc(/C=C/C#N)cc(C)c1Nc1ccnc(Nc2ccc(C#N)cc2)n1,,aqueous buffer,pH 4.5,,equilibrium solubility,2.04 ± 0.06 µg/mL
O=C(Nc1ccc(OC(F)(F)Cl)cc1)c1cnc(N2CC[C@@H](O)C2)c(-c2ccn[nH]2)c1,"item: AST increase, grade ≥2","human patients, dose-finding study","oral, 9 of sample B patients",,patients with event,4.5%
COc1ccc([C@@H](O)c2cc(-c3ncnc4cc(N5CCOCC5)ccc34)c(F)cc2Cl)nn1,,locally advanced rectal cancer,"oral, 50 mg, added: capecitabine and radiotherapy",,rectal tenesmus TEAE,0%
C=CCN1CC(=O)N2[C@@H](Cc3ccc(O)cc3F)C(=O)N(Cc3cccc(N4CC(N5CCN(CC)CC5)C4)n3)C[C@@H]2N1C(=O)NCc1ccccc1,,advanced solid tumour patients,"oral, 15 mg twice daily, grade ≥3, dose-escalation",,treatment-related decreased appetite,0%
Cc1ccc([C@H]2N[C@@H](c3ccc(-c4ccccn4)cc3)CO[C@@H]2C)cc1,"shake-flask, LC-HRMS",aqueous buffer,"16 h, pH 6.8",,solubility,< 4 µM
NC1(C(=O)N[C@@H](CCO)c2ccc(Cl)cc2)CCN(c2nc[nH]c3nccc2-3)CC1,,metastatic CRPC patients,"320 mg b.i.d., any grade, treatment-related, added: enzalutamide 160 mg daily",,incidence of Dyspepsia,0%
Cc1c(C(=O)O)ccc2c3n(nc12)[C@@H]1[C@H](C3)N(CC2CC2)[C@@]2(C(=O)Nc3cc(Cl)ccc32)[C@H]1c1cccc(Cl)c1F,,"female BALB/c nude mice, SJSA-1 xenograft, plasma","oral, 1 mg/kg twice daily",,half-life,7.7 h and 14.2 h and 13.6 h and 5.1 h and 5.6 h
CC(C)(C(=O)N1CCOc2c(C#N)cncc2C1)C(F)F,item: eye disorders,"healthy humans, both sexes","oral, 30 mg single dose",,subjects with TEAE,16.7%
O=c1[nH]c(=O)n([C@@H]2O[C@H](CO)[C@@H](O)[C@@H]2F)cc1CCCC[18F],,"nude mice, RG2 tumour, bone","intravenous, dose not given, 2 h",,biodistribution,1.14 ± 0.11 %ID/g
N[C@@H](C[18F])C(=O)O,PET imaging,"female athymic nude mice, U-87 MG xenograft, tumor","intravenous, 20 min",,tracer uptake,2.02 ± 0.39 %ID/cc
Nc1ncn([C@H]2C[C@H](O)[C@@H](CO)O2)c(=O)n1,,processed mouse plasma,"1.2 ng/mL, 12 h, 4 °C, autosampler stability",,mean deviation from nominal,1.69%
CN1CCC[C@H](CN2c3ccccc3Sc3ccccc32)C1.Cl,,"ICR mouse female fasted, kidney","oral, 16 mg/kg",,AUC(0-t),12000 ng·h/mL
OC[C@H]1O[C@@H](c2ccc(F)c(Cc3cc4ccccc4s3)c2)[C@H](O)[C@@H](O)[C@@H]1O,,Japanese type 1 diabetes patients,"oral, 25 mg/day, day 2",,hypoglycaemia adverse events,9 % patients
Cn1cnc2ccc(Nc3c(F)ccc(NS(=O)(=O)N4CC(F)C4)c3Cl)c(Cl)c2c1=O,item: lipase increased grade ≥3,human patients,"dose not given, monotherapy trial",baseline: patients,patients with lipase increased,0%
CCCC[C@H]1CC[C@H](c2ccc(C#N)cc2)CC1,,"Sprague-Dawley rat, female, placenta","1000 ng/mL in perfusate, 50 (unit not given), middle dose, mixture of 21 LCMs",,placental accumulation,20 ± 25.8 ng/g
O=c1[nH]c(=O)n([C@@H]2O[C@H](CO)[C@@H](O)[C@@H]2F)cc1CCC[18F],,"nude mice, RG2 tumour, liver","intravenous, dose not given, 2 h",,biodistribution,0.21 ± 0.14 %ID/g
C=CC(=O)Nc1cc(Nc2nccc(-c3cn(C)c4ccccc34)n2)c(OC)cc1N(C)CCN(C)C,storage stability,human dried blood spots,"24 h, on ice, LLOQ level",,recovery,61.4%
CCOC(=O)N1C[C@@H](c2ccc(C(C)=O)cc2)N[C@@H](C2CCC2)C1,"shake-flask, LC-HRMS",aqueous buffer,"16 h, pH 6.8",,solubility,> 750 µM
CCc1cc(C(=O)NC)c2nccc(N3CCc4c(cc(Cn5ccnc5)cc4-c4cn(C)nc4C(F)(F)F)C3=O)c2c1,,Sprague Dawley rats,"oral, 50 mg/kg once daily, 7 days",,serum TBA level,21.1 ± 19.5 µmol/L
Cc1cccc(CNC(=O)c2cn(CCNC(=O)c3ccccc3Sc3c([N+](=O)[O-])ncn3C)c3cc4c(cc3c2=O)OC(F)(F)O4)n1,,"Sprague-Dawley rat, male, plasma","intravenous, 5 mg/kg of parent drug",,MRT(0-inf),0.57 ± 0.26 h
CN[C@@H](C)C(=O)N[C@H]1CN(C(=O)CC(C)C)CC[C@H]2CC[C@@H](C(=O)NC(c3ccccc3)c3ccccc3)N2C1=O,unchanged drug recovered,"SCID mice, MDA-MB-231 xenograft, urine",,,renal clearance,0.127 mL/min
CN(CCCN1CCN(C(=O)CN2CCN(CC(=O)[O-])CCN(CC(=O)[O-])CCN(CC(=O)[O-])CC2)CC1)c1ccc2nccc(C(=O)NCC(=O)N3CC(F)(F)C[C@H]3C#N)c2c1.[68Ga+3],,"mice, HT-1080.hFAP and HT-1080 wild-type xenografts, kidney","iv, 500 pmol, 1 h post injection",,uptake,2 ± 0.5 %IA/g
Cc1ccc(Sc2ccccc2N2CCNCC2)c(C)c1,item: postural dizziness,healthy adult men,"oral, 20 mg daily, 12 days",,participants with TEAE,0%
